Measured values of several laboratories.
Parts stem from different laboratories: compare values within a part only.

Sample 1
Target: Myc proto-oncogene protein, bHLH-zipper, MAX partner unstated (MYC, Homo sapiens, UniProt P01106, residues 368-449)
Sequence of UniProt P01106 (368-449, looked up): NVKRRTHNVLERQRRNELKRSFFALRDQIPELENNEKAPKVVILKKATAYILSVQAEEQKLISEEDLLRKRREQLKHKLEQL
Method: protein-binding microarray
Form: double-stranded DNA, one strand shown
Sample: in vitro
Concentration: not given
Notes: k-mer, scored over probes, only values ≥0.25
Reading: higher = stronger binding
Strand	E-score
GCCCCACA	0.262
CATGGCAC	0.388
CACGTGCG	0.496
ACGCCACC	0.295

Sample 2
Target: Histone acetyltransferase KAT6A, winged helix 1, GST fusion (KAT6A, Homo sapiens, UniProt Q92794, residues 1-85)
Method: protein binding microarray
Form: double-stranded DNA, one strand shown
Sample: in vitro
Concentration: not given
Notes: 8-mer, flanks averaged, mean of 2 arrays, mostly near background
Relative to: not given
Reading: higher = stronger binding
Target sequence (chain): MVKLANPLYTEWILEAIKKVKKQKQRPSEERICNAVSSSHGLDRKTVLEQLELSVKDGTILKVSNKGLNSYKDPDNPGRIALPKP
Strand	E-score
GCGGAGTA	0.18
CAACGTCC	-0.0272
AGCATGCT	-0.179
AGACTCGG	0.0175
ATTCACGG	0.16
AGGACATA	-0.0526
AGCAAATC	-0.147

Sample 3
Target: Interferon regulatory factor 5, full length, phosphomimetic (IRF5, Homo sapiens, UniProt Q13568-2, residues 1-514, S451D/S453D/S456D/S462D)
Method: protein-binding microarray
Form: double-stranded DNA, one strand shown
Sample: in vitro
Concentration: 940 nM top
Notes: 60-bp whole probe
Added: salmon DNA 0.4 mg/ml
Relative to: random background probes
Reading: higher = stronger binding
Constant ends, left off below: GCCTAGCAC … GTCTTGATTCGCTTGACGCTGCTG
Strand	fitted relative affinity
GAGCTCCTCCTTCTCTAACCGTGCTAG	0.197 z-score
TTCGTTTTGTGTCTGGGCATGTGCTAG	0.245 z-score
TTAGGTTTCGGTATCGGCTAGTGCTAG	15.2 z-score
GACGGTATCGGGTTTCTGGACGTGCTA	4.09 z-score
GACAGACTGCTACTGCTGACGTGCTAG	-0.584 z-score
TTAGGTTCCGGTTCCGGTTAGTGCTAG	4.57 z-score

Mixed results
Substance	target	test	test system	conditions	scale	measurement	value
PhoQ, residues 284 288 289 292 302 303 SSTLSG	PhoP, residues 12 14 15 18 19 LQHIR (Escherichia coli, UniProt P23836)	Sort-seq, refers to: YFP reporter	E. coli	PhoQ-PhoP variant library, added: 10 µM Mg2+	relative to: high Mg2+ state, higher = stronger signaling	fold induction	15

A few entries again (sample 1):
Strand	E-score
GCCCCACA	0.262
CATGGCAC	0.388
CACGTGCG	0.496
